Published values collected from several papers.
Protocols differ between the studies behind these lines. Numbers after ± are the reported error.

Substance	test	test system	setting	how to read	measurement	result
C=C[C@H]1[C@H]2CCC[C@]1(c1cccc(C(N)=O)c1)CCN2CCc1ccccc1	pain-depressed locomotion	mice	subcutaneous, 18 mg/kg, with: intraperitoneal lactic acid	–	duration of antinociception	60 min
acyline	–	human men	sc, 300 µg/kg, 24 h	–	serum testosterone	46 ± 10 ng/dL
CCCCCC(O)C=CC=O (stereo not shown)	[3H]dopamine uptake, inhibitor	rat striatal synaptosomes	15 min, 30 °C	–	IC50	441 µM
NC[C@@H]1O[C@H](O[C@H]2[C@@H](O)[C@H](O[C@@H]3[C@@H](O)[C@H](N)C[C@H](N)[C@H]3O[C@H]3O[C@H](CO)[C@@H](O)[C@H](O)[C@H]3N)O[C@@H]2CO)[C@H](N)[C@@H](O)[C@@H]1O	[14C]-phenylalanine incorporation, inhibitor, (UUU)12-directed cell-free translation	M. smegmatis 70S ribosomes, Leishmania/Trypanosoma hybrid decoding site	60 min, 37 °C	–	IC50	96 µM
CC1=C(C(=O)Cl)C(c2ccccc2Cl)NC(=S)N1 (stereo not shown)	carotid artery cannulation	male Wistar rats, anaesthetised	0.3 mL, 3 h	–	mean arterial pressure	25.4 ± 1.34 mm Hg
CCOc1ccc(Nc2c(C(=O)c3cc(OC)c(OC)c(OC)c3)sc3cc(C)ccc23)cc1	tubulin polymerisation, inhibitor, absorbance	–	20 min	–	IC50	> 40 µM
O=C1c2ccccc2-c2ccc([N+](=O)[O-])c3cccc1c23	developmental toxicity	zebrafish (Danio rerio) embryos	6 to 120 hpf	–	EC50	0.2 µM
CC(=O)N[C@@H](CC(C)C)C(=O)NCC(=O)N[C@@H](Cc1ccc(O)cc1)C(=O)NCC(=O)N[C@@H](CCCCN)C(N)=O	DSC	SOPC/cholesterol 7/3 bilayers	15 mol%, pH 7.40	–	transition enthalpy	1.2 kcal/mol
CC(C)C[C@H](NC(=O)[C@@H](NC(=O)[C@H](Cc1ccc(O)cc1)NC(=O)[C@@H](NC(=O)[C@H](CC(C)C)NC(=O)[C@H](Cc1c[nH]cn1)NC(=O)[C@H](C)NC(=O)[C@H](CC(C)C)NC(=O)[C@@H](N)CCC(N)=O)C(C)C)C(C)C)C(=O)O	–	PBMC, human, HSV-1 seropositive, HLA-A*0201+	10 µg/mL, 72 h	–	IFN-γ+ CD8+ T cells	≤ 4.3%
O=c1c2ccccc2nc2n1c1nc(-c3ccccc3)cc(-c3ccc4ccccc4n3)c1c1nc3ccccc3c(=O)n12	DPPH scavenging, absorbance	–	30 min	–	IC50	124 µM
CC[C@H](C)[C@H](NC(=O)[C@@H](NC(=O)[C@@H](NC(=O)[C@H](CC(C)C)NC(=O)[C@@H](N)CC(=O)O)[C@@H](C)O)[C@@H](C)O)C(=O)N[C@@H](CCCNC(=N)N)C(=O)N[C@H](C(=O)N[C@H](C(=O)N[C@H](C(=O)N[C@@H](CS)C(=O)N[C@@H](CCC(=O)O)C(=O)NCC(=O)N[C@@H](CCCCN)C(=O)O)C(C)C)[C@@H](C)O)C(C)C	IFN-γ release, ELISPOT	splenocytes, BALB/c mouse immunised	–	–	EC50	1 µM
CC[C@H](C)[C@H](NC(=O)CNC(=O)[C@H](Cc1c[nH]c2ccccc12)NC(=O)CNC(C)=O)C(=O)N[C@@H](CCCCN)C(N)=O	DSC	SOPC/cholesterol 6/4 bilayers	15 mol%, pH 7.40	–	transition enthalpy	0.9 kcal/mol
atrial natriuretic peptide	echocardiography	male Wistar rat, high-fat/STZ type 2 diabetes	subcutaneous osmotic pump, 2 pmol/kg/min, 6 weeks	–	fractional shortening	~44%
CC(C)C[C@H](NC(=O)[C@H](CC(C)C)NC(=O)[C@H](CCCCN)NC(=O)[C@H](C)NC(=O)[C@H](CC(C)C)NC(=O)[C@H](CCCCN)NC(=O)[C@H](CCCCN)NC(=O)[C@H](CC(C)C)NC(=O)[C@H](C)NC(=O)[C@H](CCCCN)NC(=O)[C@H](CCCCN)NC(=O)[C@H](Cc1ccc(O)cc1)NC(=O)[C@@H](N)CCCCN)C(N)=O	carboxyfluorescein release	EYPC vesicles	10 µg/mL, 250 s, pH 7.4, 25 °C	baseline: Triton X-100	leakage	52%
CC(=O)N[C@@H](CO)C(=O)N[C@@H](Cc1c[nH]cn1)C(=O)N[C@@H](C)C(=O)N[C@H](C(=O)N[C@@H](CO)C(=O)N[C@@H](CO)C(N)=O)C(C)C	T1-weighted MRI	Sprague-Dawley rat	iv, 0.019 mmol/kg, with: Gd-DTPA	–	onset of BBB opening	≤ 3 min
CCOC(=O)[C@H](C)C[C@@H](Cc1ccc(-c2ccccc2)cc1)NC(=O)CCC(=O)O	–	rat high-fat streptozotocin diabetes	drinking water, 18 mg/kg/day, 6 weeks, with: ANP 2 pmol/kg/min s.c.	–	fractional shortening	~50%
CC(NC(C)(C)C)C(=O)c1cccc(Cl)c1 (stereo not shown)	nicotine-induced hypothermia, antagonist	mouse	with: nicotine 2.5 mg/kg sc	–	ED50	9200 µg/kg

Substance	test	test system	setting	how to read	measurement	result
Cc1ncc(COCc2cn(Cc3ccccc3C(F)(F)F)nn2)c(CO)c1O	Cu2+ chelation	–	100 µM, 30 min, 37 °C, with: Cu2+ 100 µM	–	absorbance change	0%
C[C@]12N3Cc4c(c(OCCCS(=O)(=O)[O-])c5ccccc5c4OCCCS(=O)(=O)[O-])CN1C(=O)N1CN4C(=O)N5CN6C(=O)N7CN8C(=O)N9Cc%10c(c(OCCCS(=O)(=O)[O-])c%11ccccc%11c%10OCCCS(=O)(=O)[O-])CN%10C(=O)N(CN%11C(=O)N(CN%12C(=O)N(CN(C3=O)[C@]12C)[C@@H]4[C@H]%125)[C@@H]6[C@H]%117)[C@]8(C)[C@@]9%10C.[Na+].[Na+].[Na+].[Na+]	–	Sprague-Dawley rat	intravenous, 20 to 80 mg/kg/min, with: continuous ketamine infusion	baseline: steady-state ketamine	total EEG power	63%
Cc1ccc2cc3c(ccc4ccccc43)c3c2c1CC3	inducer	rat, liver	intravenous, 2.5 mg at 0 h, 48 h, with: 7,12-dimethylbenz[a]anthracene 5 mg at 24 h	baseline: untreated control	menadione reductase activity	376%
CN[C@@H]1[C@@H](O)[C@@H](O[C@@H]2[C@@H](O)[C@H](O[C@H]3O[C@H]([C@@H](C)O)[C@@H](O)[C@H](O)[C@H]3N)[C@@H](N)C[C@H]2N)OC[C@]1(C)O	luciferase synthesis, inhibitor, coupled transcription-translation	M. smegmatis 70S ribosomes, Leishmania/Trypanosoma hybrid	60 min, 37 °C	–	IC50	0.02 µM
Cc1ccc(NC(=S)NS(=O)(=O)c2cnc(N/N=C/c3ccccc3)[nH]c2=O)cc1	oral glucose tolerance test	HFD/STZ type 2 diabetic rat	oral, 10 mg/kg, with: glucose 1 g/kg	–	glucose AUC	595 ± 50.2 mg·min/dL
CCOC(=O)C1=C(C)NC(=S)NC1c1ccccc1C#N (stereo not shown)	carotid artery cannulation	male Wistar rats, anaesthetised	0.3 mL, 3 h	–	mean arterial pressure	22.5 ± 1.11 mm Hg
COc1ccc(/C=C\c2cc(OC)c(OC)c(OC)c2)cc1O	tubulin polymerisation, inhibitor, absorbance	–	20 min	–	IC50	0.54 µM
CC1=C(C(=O)Cl)C(c2ccccc2Br)NC(=S)N1 (stereo not shown)	carotid artery cannulation	male Wistar rats, anaesthetised	0.3 mL, 3 h	–	mean arterial pressure	27.6 ± 0.74 mm Hg
CC(=O)O[C@H]1C[C@H](O[C@H]2[C@@H](O)C[C@H](O[C@H]3[C@@H](O)C[C@H](O[C@H]4CC[C@@]5(C)[C@H](CC[C@@H]6[C@@H]5C[C@@H](O)[C@]5(C)[C@@H](C7=CC(=O)OC7)CC[C@]65O)C4)O[C@@H]3C)O[C@@H]2C)O[C@H](C)[C@H]1O[C@@H]1O[C@H](CO)[C@@H](O)[C@H](O)[C@H]1O	echocardiography	ICR mice, doxorubicin heart failure	intraperitoneal, 150 µg/kg daily, day 28	–	LV fractional shortening	increased
CCC[C@@H]1NC(C)(C)CO[C@@]1(O)c1cccc(Cl)c1	nicotine antinociception blockade, antagonist, tail-flick test	mouse	15 min pretreatment, with: nicotine 2.5 mg/kg subcutaneous	–	ED50	4 µg/kg
corticotropin-releasing factor (human/rat)	measured: CREB phospho-Ser133	hippocampal pyramidal neurons, Sprague-Dawley rat pups	40 nM, 15 min	–	responding neurons	~85%
c1cc2ccc3cccc4ccc(c1)c2c34	inducer	female rat, liver	oral, 1 mg, 24 h, sesame oil vehicle	–	menadione reductase activity	15.7 enzyme units
CNC(=O)[C@@H](NC(=O)c1cc(OCC2(C)COC2)c(C2CC2)cn1)C(C)(C)C	immunostaining	SOD1 G93A mouse, spinal cord	ip, 30 mg/kg once daily, P25 to P35	–	IBA1-positive area	9.5 ± 0.3%
Oc1cccc2ccc3ccccc3c12	–	zebrafish embryo	–	–	EC50	0.5 to 5.5 µM
Cc1ccc([C@]2(O)OCC(C)(C)N[C@H]2C)cc1	nicotine antinociception blockade, antagonist, tail-flick test	mouse	15 min pretreatment, with: nicotine 2.5 mg/kg subcutaneous	–	ED50	4 µg/kg
CC(=O)N[C@@H](CC(C)C)C(=O)N1CCC[C@H]1C(=O)N[C@@H](Cc1ccc(O)cc1)C(=O)N1CCC[C@H]1C(=O)N[C@@H](CCCCN)C(N)=O	DSC	SOPC/cholesterol 7/3 bilayers	10 mol%, pH 7.40	–	transition enthalpy	0.5 kcal/mol
CC(C)[C@H](O)C(=O)N[C@H]1Cc2ccc3c(c2)[C@]2(C4=C(c5nc(CO)co5)N=C(O4)[C@H](C(C)(C)C)NC1=O)c1cc(F)ccc1N[C@@H]2O3	overall survival	mice, HT-29 xenograft	–	baseline: vehicle	minimum effective dose	4.5 mg/m²

Some of these lines once more:
Substance	test	test system	setting	how to read	measurement	result
C[C@]12N3Cc4c(c(OCCCS(=O)(=O)[O-])c5ccccc5c4OCCCS(=O)(=O)[O-])CN1C(=O)N1CN4C(=O)N5CN6C(=O)N7CN8C(=O)N9Cc%10c(c(OCCCS(=O)(=O)[O-])c%11ccccc%11c%10OCCCS(=O)(=O)[O-])CN%10C(=O)N(CN%11C(=O)N(CN%12C(=O)N(CN(C3=O)[C@]12C)[C@@H]4[C@H]%125)[C@@H]6[C@H]%117)[C@]8(C)[C@@]9%10C.[Na+].[Na+].[Na+].[Na+]	–	Sprague-Dawley rat	intravenous, 20 to 80 mg/kg/min, with: continuous ketamine infusion	baseline: steady-state ketamine	total EEG power	63%
Cc1ccc2cc3c(ccc4ccccc43)c3c2c1CC3	inducer	rat, liver	intravenous, 2.5 mg at 0 h, 48 h, with: 7,12-dimethylbenz[a]anthracene 5 mg at 24 h	baseline: untreated control	menadione reductase activity	376%
CN[C@@H]1[C@@H](O)[C@@H](O[C@@H]2[C@@H](O)[C@H](O[C@H]3O[C@H]([C@@H](C)O)[C@@H](O)[C@H](O)[C@H]3N)[C@@H](N)C[C@H]2N)OC[C@]1(C)O	luciferase synthesis, inhibitor, coupled transcription-translation	M. smegmatis 70S ribosomes, Leishmania/Trypanosoma hybrid	60 min, 37 °C	–	IC50	0.02 µM
Cc1ccc(NC(=S)NS(=O)(=O)c2cnc(N/N=C/c3ccccc3)[nH]c2=O)cc1	oral glucose tolerance test	HFD/STZ type 2 diabetic rat	oral, 10 mg/kg, with: glucose 1 g/kg	–	glucose AUC	595 ± 50.2 mg·min/dL
